Published values pooled from the literature.
Compare with care: the assays were run in different laboratories. Values joined by “and” are separate records of one study, mostly repeats; a detail may differ. ± gives the spread as reported.
Chain of UniProt P08183 (whole entry, looked up): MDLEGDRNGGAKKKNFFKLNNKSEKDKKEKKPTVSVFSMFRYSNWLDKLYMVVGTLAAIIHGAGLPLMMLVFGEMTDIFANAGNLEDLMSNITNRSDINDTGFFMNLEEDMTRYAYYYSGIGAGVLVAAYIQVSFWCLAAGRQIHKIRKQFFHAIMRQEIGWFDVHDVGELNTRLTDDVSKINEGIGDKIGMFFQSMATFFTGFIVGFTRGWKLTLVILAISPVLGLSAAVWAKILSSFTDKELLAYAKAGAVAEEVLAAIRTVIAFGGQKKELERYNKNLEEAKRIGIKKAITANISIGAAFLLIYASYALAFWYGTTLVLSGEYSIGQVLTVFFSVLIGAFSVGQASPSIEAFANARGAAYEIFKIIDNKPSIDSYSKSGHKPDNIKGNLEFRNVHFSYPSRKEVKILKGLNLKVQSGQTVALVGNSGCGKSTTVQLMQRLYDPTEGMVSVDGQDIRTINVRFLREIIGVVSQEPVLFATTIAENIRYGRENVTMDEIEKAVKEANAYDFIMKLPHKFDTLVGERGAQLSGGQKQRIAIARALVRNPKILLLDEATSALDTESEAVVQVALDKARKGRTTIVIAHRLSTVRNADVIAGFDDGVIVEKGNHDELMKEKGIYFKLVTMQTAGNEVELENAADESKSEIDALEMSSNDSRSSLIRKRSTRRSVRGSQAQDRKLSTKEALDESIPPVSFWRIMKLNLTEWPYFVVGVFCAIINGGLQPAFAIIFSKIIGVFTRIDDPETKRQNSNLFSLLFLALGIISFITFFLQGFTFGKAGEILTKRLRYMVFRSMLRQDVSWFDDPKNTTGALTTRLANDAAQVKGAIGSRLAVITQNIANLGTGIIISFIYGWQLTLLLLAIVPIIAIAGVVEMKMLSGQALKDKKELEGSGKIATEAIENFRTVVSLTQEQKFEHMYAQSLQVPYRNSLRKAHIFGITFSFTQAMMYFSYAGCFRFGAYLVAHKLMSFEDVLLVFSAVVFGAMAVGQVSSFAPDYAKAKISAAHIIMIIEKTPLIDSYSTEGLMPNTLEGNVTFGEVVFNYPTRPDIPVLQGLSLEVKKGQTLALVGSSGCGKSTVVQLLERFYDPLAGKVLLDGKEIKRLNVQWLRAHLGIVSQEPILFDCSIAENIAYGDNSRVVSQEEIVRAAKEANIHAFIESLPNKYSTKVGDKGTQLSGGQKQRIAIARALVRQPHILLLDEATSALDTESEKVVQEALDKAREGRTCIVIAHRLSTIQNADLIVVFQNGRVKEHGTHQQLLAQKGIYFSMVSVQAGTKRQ
Chain of UniProt P08684 (whole entry, looked up): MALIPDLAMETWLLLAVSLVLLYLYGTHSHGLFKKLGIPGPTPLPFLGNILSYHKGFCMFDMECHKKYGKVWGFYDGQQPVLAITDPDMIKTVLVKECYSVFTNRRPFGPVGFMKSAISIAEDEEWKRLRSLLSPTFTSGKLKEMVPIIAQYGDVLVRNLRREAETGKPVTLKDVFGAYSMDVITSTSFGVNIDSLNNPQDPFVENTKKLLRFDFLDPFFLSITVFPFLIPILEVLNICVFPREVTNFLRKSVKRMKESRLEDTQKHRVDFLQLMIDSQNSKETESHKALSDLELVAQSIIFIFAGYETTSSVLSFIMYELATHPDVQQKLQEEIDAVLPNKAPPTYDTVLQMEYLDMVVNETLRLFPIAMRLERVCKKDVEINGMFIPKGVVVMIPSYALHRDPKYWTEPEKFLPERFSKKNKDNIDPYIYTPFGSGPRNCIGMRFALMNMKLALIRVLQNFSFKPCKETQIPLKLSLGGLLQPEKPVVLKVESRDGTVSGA

SMILES	target or system	assay	system	setting	how to read	endpoint	value
CC[C@H]1[C@@H](O)[C@@H]2[C@H](CC[C@]3(C)[C@@H]([C@H](C)CCNC(=O)NS(=O)(=O)c4ccc(C(C)(C)C)cc4)CC[C@@H]23)[C@@]2(C)CC[C@@H](O)C[C@@H]12	Cytochrome P450 3A4 (CYP3A4, Homo sapiens, UniProt P08684)		human, plasma	dose not given, compound alone		Cmax mean	33.9 ng/mL
CC(=O)OCC1=C[C@@H]2OC(=O)C3=CO[C@@H](O[C@@H]4O[C@H](CO)[C@@H](O)[C@H](O)[C@H]4O)[C@H]1[C@@H]32	BEAS-2B	enzyme activity, inducer, fluorogenic substrate imaging		10 µM, 24 h	baseline: control	CYP1A1 induction	1.05 fold
CC(C)(c1ccc(O)cc1)c1ccc(O)cc1	HepG2 spheroids, dissociated	annexin V-FITC/PI flow cytometry		10 µM, 24 h		viable cells	66.4 ± 8.52%
Cn1ncnc1[C@H]1c2n[nH]c(=O)c3cc(F)cc(c23)N[C@@H]1c1ccc(F)cc1		refers to: Epistaxis	advanced solid tumour patients	oral, 0.5 mg single dose, alone or 2 with itraconazole		patients with adverse event	12%
Cc1cc(Nc2ccc(S(F)(F)(F)(F)F)cc2)n2nc(C(C)(F)F)nc2n1	Plasmodium vivax	12-lead Holter ECG	human malaria patients	oral, 400 mg, QTc above 450 ms		patients with QTcF above threshold	0%
C[Si]1(C)O[Si](C)(C)O[Si](C)(C)O[Si](C)(C)O[Si](C)(C)O1	Oncorhynchus mykiss	extrapolated from liver S9		concentration not given, lipid-normalized, total		bioconcentration factor	47300 L/kg lipid and 71300 L/kg lipid
O=c1c(O)c(-c2ccccc2)oc2ccccc12	BEAS-2B	enzyme activity, inducer, fluorogenic substrate imaging		10 µM, 24 h	baseline: control	CYP1A1 induction	1.45 fold
N#Cc1ccc2c(c1)[C@H]1CCCN(C(=O)c3ccc4[nH]cnc4c3)[C@H]1C2			human males	10 mg, day 7		SHBG level	38 nmol/L
CC1(C)CCC2(CC1)N[C@@H](C(=O)N[C@@H]1CC[C@@H](C(N)=O)OC1)[C@H](c1ccnc(Cl)c1F)[C@]21C(=O)Nc2cc(Cl)ccc21	ABCB1 (Homo sapiens, UniProt P08183)		Caco-2 monolayers	10 µM, 120 min, no inhibitor		Papp A to B	1.86 ×10⁻⁶ cm/s
CC[C@H](CO)N(CCN(N=O)[C@H](CC)CO)N=O	Salmonella typhimurium	mutagenicity, Ames plate incorporation	TA1537	1500 µg/plate, without S9, methanol		revertant colonies per plate	16 ± 2
C[Si](C)(C)O[Si](C)(C)O[Si](C)(C)C	Oncorhynchus mykiss	IVIVE from liver S9				hepatic intrinsic clearance kmet,int	182000 h⁻¹ and 162000 h⁻¹ and 183000 h⁻¹
CC(=O)Nc1cccc(-n2c(=O)n(C3CC3)c(=O)c3c(Nc4ccc(I)cc4F)n(C)c(=O)c(C)c32)c1	COLO 205	resazurin		concentration not given, 72 h, unit not given	baseline: DMSO	viability	0.318 and 0.215 and 0.561 and 0.189 and 0.213 and 0.328
C[C@@H]1OC(=O)[C@H](Cc2ccccc2)[C@H]1O	Pseudokirchneriella subcapitata	growth		concentration not given, 72 h, static test		NOEC	> 9000 µg/L
Cc1cc(N)c2c(OCC(C)(C)C(=O)NC(C)C)cccc2n1	Salmonella typhimurium	reverse mutation, plate incorporation	TA100	100 µg/plate, with rat liver S9		mean revertant colonies	72 colonies/plate

A few entries again:
SMILES	target or system	assay	system	setting	how to read	endpoint	value
C[Si](C)(C)O[Si](C)(C)O[Si](C)(C)C	Oncorhynchus mykiss	IVIVE from liver S9				hepatic intrinsic clearance kmet,int	182000 h⁻¹ and 162000 h⁻¹ and 183000 h⁻¹
